# Published values pooled from the literature.
# Protocols differ between the studies behind these lines.
# Cell line: NCI-H322M
SMILES,test,setting,how to read,quantity,result
CCC(=C(c1ccc(Cl)cc1)c1ccc(OCCCN(C)C)cc1)c1ccc(OC)cc1,"cell growth or viability, SRB",,,GI50,6.43 µM
CC(=O)OC[C@H]1O[C@@H](Sc2sc(C(=O)c3ccc(Br)cc3)c(N)c2-c2nc3ccccc3s2)[C@H](OC(C)=O)[C@@H](OC(C)=O)[C@@H]1OC(C)=O,SRB,"10 µM, 48 h",relative to: untreated,growth,83.5%
CC(=O)c1cccc(NC2C(N)C(NC(=O)N(C)C)(C(C)O)C(O)C2(O)COC(=O)c2c(C)cccc2O)c1 (stereo not drawn),"cell growth or viability, SRB",,,GI50,0.016 µM
COc1cc(CNC(=O)C[C@H](C)CCC=C(C)C)ccc1OCc1cn(-c2ccccc2)nn1,SRB,"10 µM, 48 h",,growth percent,107%
CC(Cc1ccc(Cl)cc1)=C(c1ccc(Cl)cc1)c1ccc(OCCN(C)C)cc1,"cell growth or viability, SRB",,,GI50,5.03 µM
COc1cc(CNC(=O)C[C@H](C)CCC=C(C)C)ccc1OCc1cn(-c2cccc([N+](=O)[O-])c2)nn1,SRB,"10 µM, 48 h",,growth percent,103%
CC/C=C\C/C=C\C/C=C\C/C=C\C/C=C\C/C=C\CCC(=O)Nc1ccn(C2OC(CO)C(O)C2(F)F)c(=O)n1 (stereo not drawn),NCI60 screen,,,TGI,19 µM
COc1cc(CNC(=O)C[C@H](C)CCC=C(C)C)ccc1OCc1cn(-c2ccccc2Cl)nn1,SRB,"10 µM, 48 h",,growth percent,91.3%
CC(=O)OCC1(O)C(Nc2cccc(C(C)=O)c2)C(N)C(NC(=O)N(C)C)(C(C)OC(C)=O)C1(C)O (stereo not drawn),"cell growth or viability, SRB",,,GI50,0.48 µM

# A few entries again:
SMILES,test,setting,how to read,quantity,result
COc1cc(CNC(=O)C[C@H](C)CCC=C(C)C)ccc1OCc1cn(-c2ccccc2Cl)nn1,SRB,"10 µM, 48 h",,growth percent,91.3%
